Experimental data pooled from the literature.
Compare with care: the assays were run in different laboratories.
lasR: Transcriptional activator protein LasR (lasR, Pseudomonas aeruginosa, UniProt P25084)
APP: Amyloid-beta precursor protein (APP, Homo sapiens, UniProt P05067)
MAOA: Amine oxidase [flavin-containing] A (MAOA, Homo sapiens, UniProt P21397)

O=C(N[C@H]1CCOC1=O)c1ccc(-n2cc(-c3cccc(C(=O)N[C@H]4CCOC4=O)c3)nn2)cc1 — inhibition (lasR; reporter gene, antagonist; 100 µM, together with: OdDHL 10 nM): 22%
C[C@@H](O)[C@H](NC(=O)[C@H](CCCCN)NC(=O)COCCN)C(=O)N[C@@H](CCCNC(=N)N)C(=O)NC(C)(C)C(=O)N[C@@H](CCCNC(=N)N)C(=O)NC(C)(C)C(=O)N[C@H](C(=O)N[C@@H](CO)C(=O)N[C@@H](Cc1c[nH]cn1)C(=O)N[C@@H](Cc1ccc(O)cc1)C(=O)NCC(=O)O)[C@@H](C)O — inhibition (Integrin alpha-2, I domain (Homo sapiens, UniProt P17301); binding to collagen I; up to 1×100 nM; maximal): 30%
O=C(Nc1ccccc1Nc1ccccc1)c1cccnc1Cl — inhibition (Succinate dehydrogenase complex (Sus scrofa, UniProt A5GZW8+D0VWV4+Q007T0+Q0QF01); enzyme activity, double-antibody sandwich ELISA; 2 µM): 50.1%
CC(=O)N[C@@H](CC(C)C)C(=O)N[C@@H](C)C(=O)N[C@@H](C)C(=O)NN(CCC(=O)N(C)C)Sc1ccccc1[N+](=O)[O-] — inhibition (Genome polyprotein, 3C protease (Human hepatitis A virus genotype IB, UniProt P08617, C1543S); enzyme activity; concentration not given): no inhibition
Ic1ccccc1/N=N/c1ccc2nc(-c3ccccc3)cc(-c3ccccc3)c2c1 — inhibition (APP; amyloid aggregation, inhibitor, fluorescence; 25 µM): 66%
O=C(C[P+]([Au-][Cl])(c1ccccc1)c1ccccc1)[O][Ti+2][O]C(=O)C[P+]([Au-][Cl])(c1ccccc1)c1ccccc1.c1cc[cH-]c1.c1cc[cH-]c1 — inhibition (RAC-gamma serine/threonine-protein kinase (AKT3, Homo sapiens, UniProt Q9Y243); kinase activity; 10 µM): ≥ 50%
C[C@@H](O)[C@H](NC(=O)[C@H](CCCCN)NC(=O)[C@H](Cc1c[nH]c2ccccc12)NC(=O)CN)C(=O)N[C@@H](CCCNC(=N)N)C(=O)NC(C)(C)C(=O)N[C@@H](CCCNC(=N)N)C(=O)NC(C)(C)C(=O)N[C@H](C(=O)N[C@@H](CO)C(=O)N[C@@H](Cc1c[nH]cn1)C(=O)N[C@@H](Cc1ccc(O)cc1)C(=O)NCC(=O)O)[C@@H](C)O — inhibition (Integrin alpha-2, with integrin beta-1 (Homo sapiens, UniProt P17301); K562 expressing integrin α2; up to 1×1 µM; maximal): 40%
O=C(Cn1cc(C2CC2)nn1)N[C@H]1CCOC1=O — inhibition (lasR; reporter gene, antagonist; 100 µM, together with: OdDHL 10 nM): 52%
C=C(C)[C@@H]1CCC(CO)=C[C@H]1c1c(O)cc(CCCCC)cc1O — inhibition (UDP-glucuronosyltransferase 1A9 (UGT1A9, Homo sapiens, UniProt O60656); inhibitor; HEK293 overexpressing UGT1A9, recombinant UGT1A9 microsomes; 100 µM, together with: propofol glucuronidation; reference: no-inhibitor control): 40%
O=[N+]([O-])c1ccc(/N=N/c2ccc3nc(-c4ccccc4)cc(-c4ccccc4)c3c2)cc1 — inhibition (APP; amyloid aggregation, inhibitor, fluorescence; 25 µM): 66%
O=C(Cn1cc(C2CCCCC2)nn1)N[C@H]1CCOC1=O — inhibition (lasR; reporter gene, antagonist; 100 µM, together with: OdDHL 10 nM): 72%
CC(C)C(=O)Nc1ccccc1-c1nn[nH]n1 — inhibition (Metallo-beta-lactamase type 2 (blaNDM-1, Klebsiella pneumoniae, UniProt C7C422); enzyme activity, inhibitor; concentration not given): no inhibition
CCCCc1cn(-c2ccc(C(=O)N[C@H]3CCOC3=O)cc2)nn1 — inhibition (lasR; reporter gene, antagonist; 10 µM, together with: OdDHL 10 nM): 13%
CCOC(=O)/C=C/c1c(-c2ccc(C)cc2)nc2ccc(/N=N/c3ccc([N+](=O)[O-])cc3)cc2c1-c1ccccc1 — inhibition (APP; amyloid aggregation, inhibitor, fluorescence; 25 µM): ~75%
O=C(N[C@H]1CCOC1=O)c1ccc(-n2cc(C3CC3)nn2)cc1 — inhibition (lasR; reporter gene, antagonist; 100 µM, together with: OdDHL 10 nM): 54%
O=C(NC1CCN(c2ncnc3[nH]cnc23)CC1)c1cccc(NS(=O)(=O)c2ccc(C(F)(F)F)cc2)c1 — inhibition (N6-adenosine-methyltransferase catalytic subunit, with METTL14 (METTL3, Homo sapiens, UniProt Q86U44); enzyme activity, inhibitor; concentration not given): inactive
CCn1c2ccccc2c2cc(C(O)c3ccc(C)c4ccccc34)ccc21 (centres unmarked) — inhibition (tubulin colchicine site; [3H]colchicine binding, competition binding; purified tubulin; 5 µM): 70%
NC1CC1c1ccc(NC(=O)C(Cc2ccccc2)NC(=O)OCc2ccc(Br)cc2)cc1 (centres unmarked) — inhibition (MAOA; enzyme activity, inhibitor, HRP-coupled; 100 µM, together with: kynuramine): 71%
O=C(N[C@H]1CCOC1=O)c1ccc(-n2cc(C3CCCC3)nn2)cc1 — inhibition (lasR; reporter gene, antagonist; 10 µM, together with: OdDHL 10 nM): 21%
CC(=O)NC(Cc1ccc(Br)c(Cl)c1)C(=O)N[C@@H](C)C(=O)N1CCC[C@H]1C(=O)N1CCC[C@H]1C(=O)N[C@@H](CCC(=O)O)C(=O)N[C@@H](Cc1c[nH]cn1)C(=O)N[C@@H](CO)C(=O)N[C@H](C(=O)N[C@@H](C)C(N)=O)[C@@H](C)OP(=O)(O)O (some centres unmarked) — inhibition (Tyrosine-protein kinase ZAP-70 (ZAP70, Homo sapiens, UniProt P43403); enzyme activity, inhibitor; 10 µM): 0.71%
COC(=O)[C@@H]1CCCN1C(=O)[C@@H](O)[C@H](N)CC(C)C — inhibition (bestatin-sensitive aminopeptidases; enzyme activity, inhibitor, AMC substrate; concentration not given): no inhibition
CCS(=O)(=O)N1CCN(CC(=O)Nc2ccc(/C=C/C(=O)c3ccc(OC)c(OC)c3)cc2)CC1 — inhibition (MAOA; enzyme activity, inhibitor, fluorescence; 100 µM): 24.1%
CC[C@H](C)[C@@H]1NC(=O)CNC(=O)[C@H](CCSC)NC(=O)[C@H](C(C)C)NC(=O)[C@H]([C@@H](C)O)NC(=O)[C@@H]2CSSC[C@@H]3NC(=O)[C@H](Cc4c[nH]cn4)NC(=O)[C@@H](NC(=O)[C@@H](NC(=O)[C@H](Cc4ccccc4)NC(=O)[C@H](C)N)[C@@H](C)O)CSSC[C@@H](C(=O)N[C@@H](CC(C)C)C(=O)O)NC(=O)[C@H](CSSC[C@H](NC(=O)[C@H](CO)NC(=O)[C@H](CCCNC(=N)N)NC(=O)[C@H](CCCNC(=N)N)NC3=O)C(=O)N[C@@H](Cc3ccc(O)cc3)C(=O)N[C@@H](CO)C(=O)N[C@@H]([C@@H](C)O)C(=O)N[C@@H](CCC(=O)O)C(=O)N[C@@H](Cc3ccc(O)cc3)C(=O)N[C@@H](CO)C(=O)N[C@@H](Cc3ccc(O)cc3)C(=O)NCC(=O)N[C@@H]([C@@H](C)O)C(=O)N2)NC(=O)[C@H](Cc2ccccc2)NC(=O)[C@H](CCCNC(=N)N)NC(=O)[C@H](Cc2c[nH]cn2)NC(=O)[C@H](CC(N)=O)NC1=O — inhibition (CALCA, calcitonin (Homo sapiens, UniProt P01258); amyloid fibril formation, inhibitor, ThT fluorescence; concentration not given, 24 to 30 h, 37 °C, compound ratio 1:1, together with: calcitonin 20 µM): 73%
CC1N=C(c2ccccc2F)c2cc(Nc3ccccc3C(F)(F)F)ccc2NC1=O (centres unmarked) — inhibition (Alpha-2A adrenergic receptor (ADRA2A, Homo sapiens, UniProt P08913); ligand displacement, radioligand; 10 µM): 24%
CCCCc1nc2ccc(/N=N/c3ccc(Br)cc3)cc2c(-c2ccccc2)c1I — inhibition (APP; amyloid aggregation, inhibitor, fluorescence; 25 µM): 62.8%
CCCCCc1cn(-c2ccc(C(=O)N[C@H]3CCOC3=O)cc2)nn1 — inhibition (lasR; reporter gene, antagonist; 10 µM, together with: OdDHL 10 nM): 44%
Clc1ccccc1C(c1ccccc1)(c1ccccc1)n1cccn1 — inhibition (Intermediate conductance calcium-activated potassium channel protein 4 (Kcnn4, Mus musculus, UniProt O89109); Ca2+-activated K+ current, inhibitor, whole-cell patch-clamp; acutely isolated microglia, 10-month-old 5xFAD mice; 1 µM, together with: 1 µM free Ca2+): inhibited
O=C(N[C@H]1CCOC1=O)c1cccc(-n2cc(C3CCCC3)nn2)c1 — inhibition (lasR; reporter gene, antagonist; 10 µM, together with: OdDHL 10 nM): 20%
Cc1ccc(-c2nc3ccc(/N=N/c4ccc(Br)cc4)cc3c(-c3ccccc3)c2I)cc1 — inhibition (APP; amyloid aggregation, inhibitor, fluorescence; 25 µM): 59%

Repeated from above:
O=C(Cn1cc(C2CCCCC2)nn1)N[C@H]1CCOC1=O — inhibition (lasR; reporter gene, antagonist; 100 µM, together with: OdDHL 10 nM): 72%
CC1N=C(c2ccccc2F)c2cc(Nc3ccccc3C(F)(F)F)ccc2NC1=O (centres unmarked) — inhibition (Alpha-2A adrenergic receptor (ADRA2A, Homo sapiens, UniProt P08913); ligand displacement, radioligand; 10 µM): 24%
O=C(N[C@H]1CCOC1=O)c1ccc(-n2cc(C3CCCC3)nn2)cc1 — inhibition (lasR; reporter gene, antagonist; 10 µM, together with: OdDHL 10 nM): 21%
CCCCCc1cn(-c2ccc(C(=O)N[C@H]3CCOC3=O)cc2)nn1 — inhibition (lasR; reporter gene, antagonist; 10 µM, together with: OdDHL 10 nM): 44%
O=C(NC1CCN(c2ncnc3[nH]cnc23)CC1)c1cccc(NS(=O)(=O)c2ccc(C(F)(F)F)cc2)c1 — inhibition (N6-adenosine-methyltransferase catalytic subunit, with METTL14 (METTL3, Homo sapiens, UniProt Q86U44); enzyme activity, inhibitor; concentration not given): inactive
